Published values pooled from the literature.
Each line is one published result; not all experiments were run side by side. ± marks the error that the study gave. Where no end group is shown, it is not given here.
SLC10A1: Hepatic sodium/bile acid cotransporter (SLC10A1, Homo sapiens, UniProt Q14973)
chemosensory protein 1: chemosensory protein 1 (Chilo suppressalis, UniProt V9PY22)
UGT1A9: UDP-glucuronosyltransferase 1A9 (UGT1A9, Homo sapiens, UniProt O60656)
Enoyl-[acyl-carrier-protein] reductase [NADPH] FabI: Enoyl-[acyl-carrier-protein] reductase [NADPH] FabI (Staphylococcus aureus, UniProt Q6GI75)
Protein farnesyltransferase: Protein farnesyltransferase (Homo sapiens, UniProt P49354+P49356)
CXCR4: C-X-C chemokine receptor type 4 (CXCR4, Homo sapiens, UniProt P61073)
B1: side-chain stapled; chain AACVSFQNLDCG (also: sidechain bridge or staple (positions not given here))

Substance | target | assay | system | conditions | how to read | endpoint | value
O=C(NC1CCC2(CCCC2)CC1)c1ccc(-c2ccccc2)cc1 | TRPM8 (Homo sapiens, UniProt Q7Z2W7) | Ca2+ entry, antagonist, Fura-2 Ca2+ imaging | HEK293 expressing TRPM8 | with: icilin 500 nM | – | lowest effective concentration | 3 nM
COc1ccc([C@@H]2Sc3ccccc3N(CCN(C)C)C(=O)[C@@H]2OC(C)=O)cc1 | SLC10A1 | inhibitor | HEK293 expressing NTCP | 100 µM, 5 min, with: taurocholate 10 µM | relative to: no compound | taurocholate uptake | 87.5 ± 5.9%
N.N.N.N.Nc1nc(C#Cc2ccccc2)nc2c1ncn2[C@@H]1O[C@H](COP(=O)(O)OP(=O)(O)OP(=O)(O)O)[C@@H](O)[C@H]1O | GPR17 (Homo sapiens, UniProt Q13304) | frontal affinity chromatography-MS | immobilized on IAM column | 1 µM, compound mixture | – | breakthrough time | 29.6 min
COc1ccc(/C=C/c2ccc(B3OC(C)(C)C(C)(C)O3)cc2)cc1 | Albumin (ALB, Homo sapiens, UniProt P02768) | fluorescence quenching, van't Hoff | – | concentration not given | – | binding enthalpy | 0.155 kcal/mol
CC[C@H](C)[C@H](NC(=O)[C@H](C)NC(=O)[C@H](CCC(N)=O)NC(=O)[C@H](CS)NC(=O)[C@@H](NC(=O)[C@H](Cc1c[nH]cn1)NC(=O)[C@H](CC(=O)O)NC(=O)[C@H](C)NC(=O)[C@H](CC(C)C)NC(=O)[C@@H](NC(=O)[C@@H](NC(=O)[C@H](CC(C)C)NC(=O)[C@H](CCCNC(=N)N)NC(=O)[C@H](Cc1c[nH]cn1)NC(=O)[C@@H](NC(=O)[C@H](CCCNC(=N)N)NC(=O)[C@@H]1CCCN1C(=O)[C@@H](NC(=O)[C@H](CCC(N)=O)NC(=O)CN)C(C)C)[C@@H](C)O)[C@@H](C)CC)[C@@H](C)O)[C@@H](C)CC)C(=O)N[C@H](C(=O)N[C@@H](CCC(N)=O)C(=O)N[C@@H](CC(=O)O)C(=O)N[C@@H](Cc1ccccc1)C(=O)N[C@@H](C)C(=O)N[C@@H](CCCNC(=N)N)C(=O)O)[C@@H](C)O | NR1D1 (Homo sapiens, UniProt P20393) | NCoR peptide binding, competitor, TR-FRET | – | 1 h, with: labelled NCoR 2040-2065 peptide | relative to: mutant over wild-type peptide | IC50 fold change | 36.8
COC(=O)C1=C(C)NC(C)=C(C(=O)OC(C)C)C1c1cccc2nonc12 (stereo not shown) | SLC10A1 | inhibitor | HEK293 expressing NTCP | 100 µM, 5 min, with: taurocholate 10 µM | relative to: no compound | taurocholate uptake | 59.3 ± 3.2%
C=CC(C)=CCC=C(C)C | chemosensory protein 1 | binding, competitive ligand, fluorescence competitive binding | – | highest concentration tested, pH 7.4, protein 2 µM, with: 1-NPN 2 µM | relative to: no ligand | remaining 1-NPN fluorescence | 73.9 ± 1.7%
O=C1CCN1C(=O)OCc1ccccc1 | Erythronolide synthase EryA2, module 3 ACP, holo (eryA, Saccharopolyspora erythraea, UniProt Q03132) | substrate, LC-MS of tryptic digest | – | 10 equivalents, 1 h, pH 7, room temperature | – | phosphopantetheine acylation | ~80%
COc1cc(O)c2c(=O)c(-c3ccc(O)cc3)coc2c1 | UGT1A9 | substrate | – | pH 7.4, 37 °C | – | Vmax | 230 pmol/mg/min
CCCCCc1ccc(Oc2ccccc2)c(O)c1 | Enoyl-[acyl-carrier-protein] reductase [NADPH] FabI | enzyme activity, inhibitor, progress curve kinetics | – | – | – | dissociation rate constant | 0.2 h⁻¹
CVGL | Protein farnesyltransferase | enzyme activity, substrate, fluorimetric | peptide | 3 µM, 30 min, with: 9 µM farnesyl diphosphate | relative to: dansyl-GCVLS (set to 1.0) | relative fluorescence increase | 0
COc1cc2c(NC3CCN(CCCC(=O)NCCC(=O)N[C@H](C(=O)N4C[C@H](O)C[C@H]4C(=O)NCc4ccc(-c5scnc5C)cc4)C(C)(C)C)CC3)nc(N3CCC(F)(F)CC3)nc2cc1OCCCN1CCCC1 | EHMT2 (Homo sapiens, UniProt Q96KQ7) | degrader, western blot | – | 0.3 µM, 24 h | relative to: DMSO | degradation | 66 ± 23%
O=C(NCc1ccc(CNS(=O)(=O)c2cccc3ccccc23)cc1)c1ccc(F)cc1 | CXCR4 | binding, competitor, rhodamine fluorescence | MDA-MB-231 | semi-quantitative screen, with: biotinylated TN14003 | – | lowest effective concentration | 1000 nM
B1 | DPP4 (Homo sapiens, UniProt P27487) | enzyme activity | – | 200 µM, 37 °C | relative to: FAPα over DPP4 | selectivity ratio | 10 fold
C[C@H](NC(=O)[C@H](Cc1c(F)c(F)c(F)c(F)c1F)NC(=O)[C@@H](NC(=O)[C@H](Cc1ccccc1)NC(=O)[C@H](C)NC(=O)[C@H](CCCNC(=N)N)N(C)C(=O)[C@@H]1CCCN1C(=O)[C@H](CCCNC(=N)N)NC(=O)CNC(=O)c1ccc2c(c1)C1(OC2=O)c2ccc(O)cc2Oc2cc(O)ccc21)[C@@H](C)O)C(=O)N[C@@H](CCC(=O)O)C(=O)NCC(N)=O | AKT1 (Homo sapiens, UniProt P31749) | substrate, CE-LIF | – | 25 µM, pH 7.0, 30 °C, enzyme 6 nM, with: ATP 1 mM | – | time to half phosphorylation | 174 min
CSIL | Protein farnesyltransferase | enzyme activity, substrate, fluorimetric | peptide | 3 µM, 30 min, with: 9 µM farnesyl diphosphate | relative to: dansyl-GCVLS (set to 1.0) | relative fluorescence increase | 0.18
N.N.N.O=c1[nH]c(=O)n([C@@H]2O[C@H](COP(=O)(O)OP(=O)(O)O)[C@@H](O)[C@H]2O)cc1I | Uracil nucleotide/cysteinyl leukotriene receptor, short isoform (GPR17, Homo sapiens, UniProt Q13304, R283I) | frontal affinity chromatography-MS | mutated receptor IAM column | concentration not given | relative to: wild type column | breakthrough time change | -10%

Substance | target | assay | system | conditions | how to read | endpoint | value
N=C(N)NCC(=O)NCC1(Cc2ccccc2)CCN(Cc2ccccc2)CC1 | Neuropeptide FF receptor 2 (Homo sapiens, UniProt Q9Y5X5) | receptor activation, agonist | – | – | – | highest concentration inactive | ≤ 1 µM
O=C(O)c1ccc(NC(c2ccc3ccccc3c2O)c2c(F)cc(Br)cc2F)cc1 (stereo not shown) | CAAX prenyl protease 2 (Homo sapiens, UniProt Q9Y256) | enzyme activity, inhibitor | – | 10 µM | – | remaining activity | < 40%
Oc1cc(O)c2c(c1)O[C@H](c1cc(O)c(O)c(O)c1)[C@H](O)C2 | UGT1A9 | substrate | – | pH 7.4, 37 °C | – | Vmax | 5130 pmol/mg/min
CN(Cc1ccc(CN(C)Cc2cccnc2)cc1)Cc1cccnc1 | CXCR4 | binding, competition binding | MDA-MB-231 | semi-quantitative screen, with: biotinylated TN14003 | – | lowest effective concentration | > 1000 nM
CS(=O)(=O)c1ccc(-c2nn(-c3ccc(C#N)cc3)cc2C(=O)Nc2cccc(F)c2)cc1 | ALDH1A2 (Homo sapiens, UniProt O94788) | differential scanning fluorimetry | – | 200 µM, with: NAD 1 mM | – | ΔTm | 8.6 ± 0.07 °C
CCCC/C=C\CCCCCCCCCC=O | chemosensory protein 1 | binding, competitive ligand, fluorescence competitive binding | – | highest concentration tested, pH 7.4, protein 2 µM, with: 1-NPN 2 µM | relative to: no ligand | remaining 1-NPN fluorescence | 43.6 ± 0.68%
CCOc1ccc2ccccc2c1C(=O)N[C@@H]1C(=O)N2[C@@H]1SC(C)(C)[C@@H]2C(=O)O | SLC10A1 | inhibitor | HEK293 expressing NTCP | 100 µM, 5 min, with: taurocholate 10 µM | relative to: no compound | taurocholate uptake | 96.7 ± 5.6%
Cc1ncsc1-c1ccc(CNC(=O)[C@@H]2C[C@@H](O)CN2C(=O)[C@@H](NC(=O)CCCCCCCNC(=O)O[C@H]2C[C@@H](C)C=C3C=C[C@H](C)[C@H](CC[C@@H]4C[C@@H](O)CC(=O)O4)[C@H]32)C(C)(C)C)cc1 | HMGCR (Homo sapiens, UniProt P04035) | Western blot | HepG2 | 1 µM, 16 h | relative to: untreated control | remaining protein level | 63 ± 5%
CCLL | Protein farnesyltransferase | enzyme activity, substrate, fluorimetric | peptide | 3 µM, 30 min, with: 9 µM farnesyl diphosphate | relative to: dansyl-GCVLS (set to 1.0) | relative fluorescence increase | < 0.05
N#Cc1ccccc1Oc1ccc(Br)cc1O | Enoyl-[acyl-carrier-protein] reductase [NADPH] FabI | enzyme activity, inhibitor, progress curve kinetics, item: NADPH | – | – | – | Ki | 0.05 nM
CLIL | Protein farnesyltransferase | enzyme activity, substrate, fluorimetric | peptide | 3 µM, 30 min, with: 9 µM farnesyl diphosphate | relative to: dansyl-GCVLS (set to 1.0) | relative fluorescence increase | < 0.05
Nc1ncc(-c2ccncc2)nc1Nc1ccc2[nH]ccc2c1 | FLT3 (Homo sapiens, UniProt P36888) | enzyme activity, inhibitor, radiometric | – | 1 µM | – | remaining activity | < 20%
Ac-EVVYLIIRACARRAQRRSNP-NH2 (N-acetyl, C-amide) | Calmodulin-1 (CALM1, Homo sapiens, UniProt P0DP23, D132A/D96A) | Ca2+ dissociation EF1, stopped flow | peptide | 10 µM, pH 7.0, 21 °C, with: CaM34 mutant | – | koff | 6.3 ± 0.7 s⁻¹
COc1ccc2[nH]c([S+]([O-])Cc3ncc(C)c(OC)c3C)nc2c1 (stereo not shown) | SLC10A1 | inhibitor | HEK293 expressing NTCP | 100 µM, 5 min, with: taurocholate 10 µM | relative to: no compound | taurocholate uptake | 105 ± 6%
CCCC/C=C\CCCCCCCCCCCC=O | Chilo suppressalis CSP2 | binding, competitive ligand, fluorescence competitive binding | – | highest concentration tested, pH 7.4, protein 2 µM, with: 1-NPN 2 µM | relative to: no ligand | remaining 1-NPN fluorescence | 43.3 ± 2.13%
O=C(NCc1ccc(CNS(=O)(=O)c2ccccc2F)cc1)c1ccc(CNc2ncccn2)cc1 | CXCR4 | binding, competitive inhibitor, competitive binding | MDA-MB-231 | semi-quantitative rhodamine readout, with: biotinylated TN14003 | – | lowest effective concentration | 1000 nM
O=C1[C@H](CC[C@H](O)c2ccc(F)cc2)[C@@H](c2ccc(O)cc2)N1c1ccc(F)cc1 | SLC10A1 | inhibitor | NTCP-HEK293 | 50 µM | relative to: without compound | taurocholate uptake | 62.5 ± 1.4%

Some of these lines once more:
Substance | target | assay | system | conditions | how to read | endpoint | value
CCOc1ccc2ccccc2c1C(=O)N[C@@H]1C(=O)N2[C@@H]1SC(C)(C)[C@@H]2C(=O)O | SLC10A1 | inhibitor | HEK293 expressing NTCP | 100 µM, 5 min, with: taurocholate 10 µM | relative to: no compound | taurocholate uptake | 96.7 ± 5.6%
CLIL | Protein farnesyltransferase | enzyme activity, substrate, fluorimetric | peptide | 3 µM, 30 min, with: 9 µM farnesyl diphosphate | relative to: dansyl-GCVLS (set to 1.0) | relative fluorescence increase | < 0.05
B1 | DPP4 (Homo sapiens, UniProt P27487) | enzyme activity | – | 200 µM, 37 °C | relative to: FAPα over DPP4 | selectivity ratio | 10 fold
CSIL | Protein farnesyltransferase | enzyme activity, substrate, fluorimetric | peptide | 3 µM, 30 min, with: 9 µM farnesyl diphosphate | relative to: dansyl-GCVLS (set to 1.0) | relative fluorescence increase | 0.18
